Experimental data pooled from the literature.

Cc1c(Cl)c(C)[n+]([O-])c(Cl)c1-c1noc(-c2cc(O)c(O)c([N+](=O)[O-])c2)n1  adverse drug reaction incidence (refers to: Hyperhidrosis; healthy Chinese subjects; oral, 100 mg, 4 days): 0%
Cc1c(C(=O)O)ccc2c3n(nc12)[C@@H]1[C@H](C3)N(CC2CC2)[C@@]2(C(=O)Nc3cc(Cl)ccc32)[C@H]1c1cccc(Cl)c1F  adverse event incidence (phase Ia trial, refers to: Thrombocytopenia; cancer patients; oral, dose not given, all patients all grades): 44.4%
CC[C@H](C)[C@H](NC(=O)[C@H](Cc1ccccc1)NC(=O)[C@H](CCC(=O)O)NC(=O)[C@H](CCCCNC(=O)COCCOCCNC(=O)COCCOCCNC(=O)CC[C@H](NC(=O)CCCCCCCCCCCCCCCCC(=O)O)C(=O)O)NC(=O)[C@H](C)NC(=O)[C@H](C)NC(=O)[C@H](CCC(N)=O)NC(=O)CNC(=O)[C@H](CCC(=O)O)NC(=O)[C@H](CC(C)C)NC(=O)[C@H](Cc1ccc(O)cc1)NC(=O)[C@H](CO)NC(=O)[C@H](CO)NC(=O)[C@@H](NC(=O)[C@H](CC(=O)O)NC(=O)[C@H](CO)NC(=O)[C@@H](NC(=O)[C@H](Cc1ccccc1)NC(=O)[C@@H](NC(=O)CNC(=O)[C@H](CCC(=O)O)NC(=O)C(C)(C)NC(=O)[C@@H](N)Cc1cnc[nH]1)[C@@H](C)O)[C@@H](C)O)C(C)C)C(=O)N[C@@H](C)C(=O)N[C@@H](Cc1c[nH]c2ccccc12)C(=O)N[C@@H](CC(C)C)C(=O)N[C@H](C(=O)N[C@@H](CCCNC(=N)N)C(=O)NCC(=O)N[C@@H](CCCNC(=N)N)C(=O)NCC(=O)O)C(C)C  adverse event incidence (refers to: Rhinorrhoea; type 2 diabetes patients; dose not given; reference: subjects): 0%
CC(=O)O[C@H]1C(=O)[C@@]2(C)[C@H]([C@H](OC(=O)c3ccccc3)[C@]3(O)C[C@H](OC(=O)[C@H](O)[C@@H](NC(=O)c4ccccc4)c4ccccc4)C(C)=C1C3(C)C)[C@]1(OC(C)=O)CO[C@@H]1C[C@@H]2O  adverse event incidence (refers to: Diarrhoea; patients with advanced solid tumours; intravenous, dose not given, grade 3 and 4, possibly related to drug): 7%
NCCONC(=O)[C@@H]1CC[C@@H]2CN1C(=O)N2OS(=O)(=O)O  adverse event incidence (refers to: urinary occult blood positive; healthy Chinese men; intravenous, 2 g, treatment-emergent): 0%
Cc1cc(Nc2ccc(S(F)(F)(F)(F)F)cc2)n2nc(C(C)(F)F)nc2n1  adverse event Asthenia (Plasmodium falciparum malaria patients; oral, 250 mg): 0%
O=C1CCc2ccc(OCCCCN3CCN(c4cccc(Cl)c4Cl)CC3)cc2N1  adverse event incidence (refers to: Hypotension; patients, CYP2D6 ultrarapid metabolizers; dose not given, long-acting oral or depot): 13%
FC(F)(F)c1ccc(CNc2ccc(Cc3c[nH]c4ncc(Cl)cc34)cn2)cn1  adverse event incidence (refers to: Fatigue; patients with advanced solid tumours; oral, dose not given, grade 3 and 4, possibly related to drug): 15%

Repeated from above:
CC[C@H](C)[C@H](NC(=O)[C@H](Cc1ccccc1)NC(=O)[C@H](CCC(=O)O)NC(=O)[C@H](CCCCNC(=O)COCCOCCNC(=O)COCCOCCNC(=O)CC[C@H](NC(=O)CCCCCCCCCCCCCCCCC(=O)O)C(=O)O)NC(=O)[C@H](C)NC(=O)[C@H](C)NC(=O)[C@H](CCC(N)=O)NC(=O)CNC(=O)[C@H](CCC(=O)O)NC(=O)[C@H](CC(C)C)NC(=O)[C@H](Cc1ccc(O)cc1)NC(=O)[C@H](CO)NC(=O)[C@H](CO)NC(=O)[C@@H](NC(=O)[C@H](CC(=O)O)NC(=O)[C@H](CO)NC(=O)[C@@H](NC(=O)[C@H](Cc1ccccc1)NC(=O)[C@@H](NC(=O)CNC(=O)[C@H](CCC(=O)O)NC(=O)C(C)(C)NC(=O)[C@@H](N)Cc1cnc[nH]1)[C@@H](C)O)[C@@H](C)O)C(C)C)C(=O)N[C@@H](C)C(=O)N[C@@H](Cc1c[nH]c2ccccc12)C(=O)N[C@@H](CC(C)C)C(=O)N[C@H](C(=O)N[C@@H](CCCNC(=N)N)C(=O)NCC(=O)N[C@@H](CCCNC(=N)N)C(=O)NCC(=O)O)C(C)C  adverse event incidence (refers to: Rhinorrhoea; type 2 diabetes patients; dose not given; reference: subjects): 0%
